Assay results gathered from unrelated publications.
Each line is one published result; not all experiments were run side by side.
Organism: Staphylococcus epidermidis

Compound	test	test system	setting	MIC
CC(C)C[C@H](NC(=O)[C@@H](NC(=O)[C@H](CCCNC(=N)N)NC(=O)[C@H](CCC(N)=O)NC(=O)[C@H](Cc1ccccc1)NC(=O)[C@H](Cc1ccc(O)cc1)NC(=O)[C@H](CC(N)=O)NC(=O)[C@H](Cc1c[nH]c2ccccc12)NC(=O)[C@@H](NC(=O)[C@H](CCCNC(=N)N)NC(=O)[C@H](CCCCN)NC(=O)[C@@H](N)Cc1ccccc1)C(C)C)C(C)C)C(=O)N[C@H](C(=O)N[C@@H](CCCCN)C(=O)N[C@@H](CCCCN)C(=O)N[C@@H](Cc1ccc(O)cc1)C(N)=O)C(C)C	broth dilution	KCTC 1917		25 µM
N=C(N)NCCC[C@H](NC(=O)[C@H](CCCNC(=N)N)NC(=O)[C@H](Cc1ccccc1)NC(=O)[C@H](CO)NC(=O)[C@H](Cc1ccccc1)NC(=O)[C@H](Cc1c[nH]c2ccccc12)NC(=O)[C@H](Cc1ccccc1)NC(=O)[C@H](CO)NC(=O)[C@H](Cc1ccccc1)NC(=O)[C@H](CCCNC(=N)N)NC(=O)[C@@H](N)CCCNC(=N)N)C(N)=O	broth microdilution	12228, Mueller-Hinton broth	24 h, 37 °C, lowest concentration, 95% inhibition, with: BSA	128 µM
CC[C@H](C)[C@H](N)C(=O)N[C@@H](CCCNC(=N)N)C(=O)N[C@H](C(=O)N[C@@H](Cc1c[nH]c2ccccc12)C(=O)N[C@@H](CCCCN)C(=O)N[C@@H](CCCCN)C(=O)N[C@H](C(=O)N[C@H](C(=O)N[C@@H](CCCNC(=N)N)C(=O)N[C@@H](CCCCN)C(=O)N[C@@H](CCSC)C(=O)N[C@@H](CCCCN)C(=O)N[C@@H](C)C(=O)N[C@H](C(=O)N[C@@H](Cc1ccc(O)cc1)C(=O)N[C@@H](Cc1c[nH]cn1)C(N)=O)[C@@H](C)CC)C(C)C)[C@@H](C)CC)C(C)C	broth dilution	KCTC 1917		100 µM
CC1COC2=C1C(=O)C(=O)c1c2ccc2c1C(OC(=O)CNC(=O)C(N)CCC(=O)O)CCC2(C)C (mixture of isomers)		GDMCC 1.143	48 h	31 µM
Oc1c(Br)cc(Br)c2nc3cc(Cl)ccc3nc12	broth microdilution	12228	16 h, 37 °C	0.15 µM
CC1COC2=C1C(=O)C(=O)c1c2ccc2c1C(OC(=O)CNC(=O)CN)CCC2(C)C (mixture of isomers)		GDMCC 1.143	48 h	63 µM
CC[C@H](C)[C@H](N)C(=O)N[C@@H](CCCNC(=N)N)C(=O)N[C@H](C(=O)N[C@@H](Cc1c[nH]c2ccccc12)C(=O)N[C@@H](Cc1ccccc1)C(=O)N[C@H](C(=O)N[C@@H](CCCCN)C(=O)N[C@H](C(=O)N[C@@H](CCCNC(=N)N)C(=O)N[C@@H](CCCCN)C(=O)N[C@@H](CCSC)C(=O)N[C@@H](CCCCN)C(=O)N[C@@H](C)C(=O)N[C@H](C(=O)N[C@@H](Cc1ccc(O)cc1)C(=O)N[C@@H](Cc1c[nH]cn1)C(N)=O)[C@@H](C)CC)C(C)C)[C@@H](C)CC)C(C)C	broth dilution	KCTC 1917		100 µM
c1ccc(CCNC2CCCc3c2[nH]c2ccc(C4CCCCC4)cc32)cc1 (centres unmarked)	microbial growth, broth dilution	MRSE		2 µg/mL
Oc1c(Br)cc(Br)c2nc3cc(Cl)ccc3nc12	broth microdilution	12228		0.15 µM
CC(C)C[C@H](NC(=O)[C@H](CCCNC(=N)N)NC(=O)CNC(=O)CNC(=O)[C@@H](N)CCCNC(=N)N)C(=O)N[C@H]1CSSC[C@@H](C(=O)N[C@H](C(=O)NCC(=O)N[C@@H](CCCNC(=N)N)C(N)=O)C(C)C)NC(=O)[C@H](C(C)C)NC(=O)[C@@H]2CSSC[C@H](NC(=O)[C@H](Cc3ccc(O)cc3)NC1=O)C(=O)N[C@@H](CCCNC(=N)N)C(=O)N[C@@H](CCCNC(=N)N)C(=O)N[C@@H](CCCNC(=N)N)C(=O)N[C@@H](Cc1ccccc1)C(=O)N2	broth microdilution	ATCC 51625	18 h, 37 °C	5 µg/mL
Oc1c(Br)cc(Br)c2nc3cc(F)c(F)cc3nc12	broth microdilution	12228		0.39 µM
CC[C@H](C)[C@H](NC(=O)[C@H](C)NC(=O)[C@@H](NC(=O)[C@H](CC(=O)O)NC(=O)[C@H](CCCCN)NC(=O)[C@H](CO)NC(=O)[C@@H](NC(=O)[C@H](CC(N)=O)NC(=O)[C@H](C)NC(=O)[C@@H](NC(=O)[C@H](CCC(=O)O)NC(=O)[C@H](CCCCN)NC(=O)[C@@H](NC(=O)[C@@H](NC(=O)[C@H](Cc1c[nH]cn1)NC(=O)[C@H](CCCCN)NC(=O)[C@@H](NC(=O)[C@H](CCCCN)NC(=O)[C@H](CCCCN)NC(=O)[C@@H](NC(=O)[C@H](CC(C)C)NC(=O)[C@H](CCCCN)NC(=O)[C@H](CC(N)=O)NC(=O)[C@H](Cc1ccccc1)NC(=O)[C@H](CCCNC(=N)N)NC(=O)[C@H](CCCCN)NC(=O)[C@H](CCCNC(=N)N)NC(=O)[C@H](Cc1ccccc1)NC(=O)CN)C(C)C)C(C)C)[C@@H](C)O)[C@@H](C)CC)[C@@H](C)O)C(C)C)C(C)C)C(=O)N[C@H](C(=O)N[C@@H](C)C(=O)NCC(=O)N[C@@H](CO)C(=O)NCC(=O)N[C@H](C(=O)N[C@@H](C)C(=O)N[C@H](C(=O)NCC(=O)N[C@@H](C)C(=O)N[C@@H](C)C(=O)N[C@@H](CCSC)C(N)=O)C(C)C)C(C)C)C(C)C		ATCC 35984, CAMHB		> 1020 µg/mL
Oc1c(Br)cc(Br)c2nc3ccc(C(F)(F)F)cc3nc12	broth microdilution	methicillin-resistant 35984		0.3 µM
Cc1cc(C)c2nc3c(Br)cc(Br)c(O)c3nc2c1	broth microdilution	12228	16 h, 37 °C	0.15 µM

A few entries again:
Compound	test	test system	setting	MIC
Cc1cc(C)c2nc3c(Br)cc(Br)c(O)c3nc2c1	broth microdilution	12228	16 h, 37 °C	0.15 µM
